Measurements of several laboratories.
A part holds a random share of what one study measured.

Study 1 — technique: protein binding microarray; molecule type: double-stranded DNA, one strand shown; matrix: in vitro; tested at: not given; reference: not given; direction: higher = stronger binding
Target: Histone acetyltransferase KAT6A, winged helix 1, GST fusion (KAT6A, Homo sapiens, UniProt Q92794, residues 1-85)
Notes: 8-mer, flanks averaged, mean of 2 arrays, mostly near background
Construct (chain): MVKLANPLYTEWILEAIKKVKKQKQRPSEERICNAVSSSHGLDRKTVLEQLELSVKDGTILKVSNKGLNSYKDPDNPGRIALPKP
| Oligonucleotide | E-score |
| --- | --- |
| GCTTTCAA | -0.0109 |
| GCAAGAAA | -0.0425 |
| ATGGCGGG | 0.208 |
| AAATGGGT | -0.243 |
| GATTGTAC | -0.0572 |
| TAGGTCGA | -0.0581 |
| ATGGGCGC | 0.185 |
| ACTCATAC | -0.185 |
| TTGATCAA | 0.0381 |
| CGGCAACC | 0.369 |

Study 2 — technique: protein-binding microarray; molecule type: hairpin DNA; matrix: in vitro; tested at: not given; reference: not given; direction: higher = stronger binding; constant ends, left off below: GAGGCCAT … ATGGCCTCACACTC
Target: FOXO3, forkhead domain (mouse, UniProt Q9WVH4, residues 31-263)
Sequence of UniProt Q9WVH4 (31-263, looked up): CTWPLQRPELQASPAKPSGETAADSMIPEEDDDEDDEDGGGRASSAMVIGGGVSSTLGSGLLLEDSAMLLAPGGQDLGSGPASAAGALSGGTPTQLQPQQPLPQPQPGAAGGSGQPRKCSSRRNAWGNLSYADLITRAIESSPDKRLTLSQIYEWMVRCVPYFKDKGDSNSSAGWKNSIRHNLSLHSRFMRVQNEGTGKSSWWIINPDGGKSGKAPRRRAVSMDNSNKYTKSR
Notes: whole hairpin DNA, median over replicate spots
| Oligonucleotide | median fluorescence |
| --- | --- |
| GCAAACCACGCCTCCTGGCGTGGTTTGC | 4560 a.u. |
| GCATACAACGCCTCCTGGCGTTGTATGC | 4090 a.u. |
| GTAACCCACGCCTCCTGGCGTGGGTTAC (5mC at 15) | 4130 a.u. |
| ATAAACAACGCCTCCTGGCGTTGTTTAT | 4150 a.u. |
| CGAAACAACGCCTCCTGGCGTTGTTTCG (5mC at 35) | 4280 a.u. |
| GCAACGAACGCCTCCTGGCGTTCGTTGC | 4610 a.u. |

Study 3 — technique: protein-binding microarray; molecule type: double-stranded DNA, one strand shown; matrix: in vitro; tested at: 250 nM; notes: 60-bp whole probe; added: salmon DNA 0.4 mg/ml; reference: random background probes; direction: higher = stronger binding; constant ends, left off below: GCCTAGCAC … GTCTTGATTCGCTTGACGCTGCTG
Target: Interferon regulatory factor 7, full length, phosphomimetic (IRF7, Homo sapiens, UniProt Q92985, residues 1-503, S101K/S471D/S472D/S475D/S476D/S477D/S483D/S484D/S487D)
Construct (chain): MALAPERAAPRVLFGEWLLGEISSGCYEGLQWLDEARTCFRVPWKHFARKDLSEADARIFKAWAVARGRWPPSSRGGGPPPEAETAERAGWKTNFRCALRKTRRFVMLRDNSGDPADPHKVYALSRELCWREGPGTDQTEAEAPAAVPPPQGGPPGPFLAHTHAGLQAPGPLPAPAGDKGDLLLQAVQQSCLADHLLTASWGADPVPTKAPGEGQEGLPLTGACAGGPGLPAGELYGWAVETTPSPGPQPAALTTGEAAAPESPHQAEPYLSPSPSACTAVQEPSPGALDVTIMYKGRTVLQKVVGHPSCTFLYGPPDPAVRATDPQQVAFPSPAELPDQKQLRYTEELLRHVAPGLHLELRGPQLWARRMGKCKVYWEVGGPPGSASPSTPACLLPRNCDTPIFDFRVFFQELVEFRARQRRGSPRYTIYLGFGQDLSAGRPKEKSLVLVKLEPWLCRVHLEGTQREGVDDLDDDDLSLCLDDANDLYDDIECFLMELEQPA
| Oligonucleotide | log fluorescence |
| --- | --- |
| TCACTCCTCTCTCTTTCACTGTGCTAG | 0.358 z-score |
| TCAAGTCTCAAAATTAGACTGTGCTAG | 0.176 z-score |
| GACGGTTTCCTTTTGCTGACGTGCTAG | 8.59 z-score |
| GACGGTTTCGGGACTGGTGACGTGCTA | 3.85 z-score |
| TCAGTTTTCCTTCATGTACTGTGCTAG | 2.44 z-score |
| TATAATATATATTCATATATGTGCTAG | 1.08 z-score |
| GCCGGTATCGGTCTCGGGACGTGCTAG | 0.833 z-score |
| TTAGCTTTCAGTTCCGATTAGTGCTAG | 0.892 z-score |

Mixed results
| Substance | target | test | system | conditions | scale | measurement | result |
| --- | --- | --- | --- | --- | --- | --- | --- |
| PhoQ, residues 284 288 289 292 302 303 SNGLAW | PhoP, residues 12 14 15 18 19 HEGLL (Escherichia coli, UniProt P23836) | Sort-seq, refers to: YFP reporter | E. coli | PhoQ-PhoP variant library, added: 10 µM Mg2+ | reference: high Mg2+ state, higher = stronger signaling | fold induction | 2.09 |
